Measurements gathered from unrelated publications.
Protocols differ between the studies behind these lines. ± gives the spread as reported.
Sequence of UniProt P10721 (whole entry, looked up): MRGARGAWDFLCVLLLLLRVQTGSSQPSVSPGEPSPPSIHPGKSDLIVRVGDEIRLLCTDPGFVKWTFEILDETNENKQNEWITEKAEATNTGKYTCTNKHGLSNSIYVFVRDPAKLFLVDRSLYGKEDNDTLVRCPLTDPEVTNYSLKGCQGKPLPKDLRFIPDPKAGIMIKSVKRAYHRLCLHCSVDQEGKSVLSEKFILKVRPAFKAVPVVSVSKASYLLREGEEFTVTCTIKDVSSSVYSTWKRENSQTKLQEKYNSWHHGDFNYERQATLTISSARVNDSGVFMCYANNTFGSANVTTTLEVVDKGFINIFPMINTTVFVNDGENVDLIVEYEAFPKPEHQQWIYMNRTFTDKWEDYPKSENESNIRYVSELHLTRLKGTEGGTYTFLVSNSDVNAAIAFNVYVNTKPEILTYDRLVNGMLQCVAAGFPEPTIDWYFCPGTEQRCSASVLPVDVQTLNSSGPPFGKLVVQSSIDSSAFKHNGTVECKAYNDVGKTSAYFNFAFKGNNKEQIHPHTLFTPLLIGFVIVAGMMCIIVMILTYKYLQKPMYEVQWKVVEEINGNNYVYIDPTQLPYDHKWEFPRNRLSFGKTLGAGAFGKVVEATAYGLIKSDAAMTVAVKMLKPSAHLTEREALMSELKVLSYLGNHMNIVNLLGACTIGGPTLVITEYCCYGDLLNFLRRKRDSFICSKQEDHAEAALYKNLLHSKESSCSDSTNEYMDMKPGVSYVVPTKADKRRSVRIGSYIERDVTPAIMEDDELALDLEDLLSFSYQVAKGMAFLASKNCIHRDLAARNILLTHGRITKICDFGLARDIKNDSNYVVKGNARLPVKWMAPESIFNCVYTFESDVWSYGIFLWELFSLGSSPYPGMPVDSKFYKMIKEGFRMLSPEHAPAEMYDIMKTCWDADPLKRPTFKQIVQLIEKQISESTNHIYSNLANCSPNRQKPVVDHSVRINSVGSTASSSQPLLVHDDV
Sequence of UniProt P07948 (whole entry, looked up): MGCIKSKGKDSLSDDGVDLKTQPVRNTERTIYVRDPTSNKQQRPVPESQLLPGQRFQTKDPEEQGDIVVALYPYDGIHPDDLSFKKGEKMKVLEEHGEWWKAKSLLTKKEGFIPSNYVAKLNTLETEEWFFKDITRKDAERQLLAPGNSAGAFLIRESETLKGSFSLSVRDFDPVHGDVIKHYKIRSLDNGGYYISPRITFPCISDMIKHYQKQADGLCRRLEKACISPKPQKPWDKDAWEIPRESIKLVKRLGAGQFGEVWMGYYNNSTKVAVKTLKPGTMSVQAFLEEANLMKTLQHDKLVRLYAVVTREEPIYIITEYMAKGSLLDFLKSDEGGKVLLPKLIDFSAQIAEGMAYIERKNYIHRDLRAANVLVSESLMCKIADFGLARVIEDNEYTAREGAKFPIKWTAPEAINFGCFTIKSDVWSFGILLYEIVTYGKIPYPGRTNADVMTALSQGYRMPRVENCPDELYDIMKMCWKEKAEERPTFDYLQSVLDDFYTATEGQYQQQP
Sequence of UniProt O75676 (whole entry, looked up): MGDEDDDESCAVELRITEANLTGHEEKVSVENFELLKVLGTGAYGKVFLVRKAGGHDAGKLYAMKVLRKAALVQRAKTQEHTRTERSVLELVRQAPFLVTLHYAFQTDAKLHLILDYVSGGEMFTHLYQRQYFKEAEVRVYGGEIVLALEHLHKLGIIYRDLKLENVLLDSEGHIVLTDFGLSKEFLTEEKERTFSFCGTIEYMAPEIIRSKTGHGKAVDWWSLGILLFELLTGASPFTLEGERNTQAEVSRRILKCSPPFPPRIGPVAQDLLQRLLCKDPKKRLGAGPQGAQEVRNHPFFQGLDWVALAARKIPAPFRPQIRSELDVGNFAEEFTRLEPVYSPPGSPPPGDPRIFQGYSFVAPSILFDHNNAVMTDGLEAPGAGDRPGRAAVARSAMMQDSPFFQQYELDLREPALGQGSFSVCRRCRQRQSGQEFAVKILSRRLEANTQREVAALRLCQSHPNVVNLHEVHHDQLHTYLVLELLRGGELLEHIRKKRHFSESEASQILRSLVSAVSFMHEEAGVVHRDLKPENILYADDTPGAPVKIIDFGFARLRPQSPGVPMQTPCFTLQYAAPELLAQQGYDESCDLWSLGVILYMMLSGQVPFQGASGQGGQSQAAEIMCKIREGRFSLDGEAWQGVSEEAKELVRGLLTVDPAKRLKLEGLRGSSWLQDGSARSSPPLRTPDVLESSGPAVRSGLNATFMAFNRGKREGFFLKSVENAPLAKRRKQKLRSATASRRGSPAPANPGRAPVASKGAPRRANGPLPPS

`c1ccc(CCNC2CCCc3c2[nH]c2ccc(C4CCCCC4)cc32)cc1` (stereo not shown) gave an MIC of 2 µg/mL (Staphylococcus simulans; broth microdilution; 22).
With `CC[C@H](C)[C@H](N)C(=O)N[C@H](C)C(=O)N[C@@H](CC(C)C)C(=O)N[C@H](CCC(=O)O)C(=O)N[C@H](C(=O)N[C@H]1CCCCNC(=O)[C@H](CC(N)=O)NC(=O)[C@@H](CC(=O)O)NC(=O)[C@H](Cc2c[nH]cn2)NC(=O)[C@@H](Cc2ccccc2)NC(=O)[C@H]([C@@H](C)CC)NC(=O)[C@@H](CCCN)NC1=O)[C@@H](C)CC` the MIC was greater than 64 µg/mL (Staphylococcus simulans; 22; 18 h, 37 °C, 0.3 mM ZnSO4 LB).
`CC(C)C[C@H](NC(=O)[C@H](CC(C)C)NC(=O)[C@H](CCCCN)NC(=O)CNC(=O)[C@H](CC(C)C)NC(=O)CNC(=O)[C@H](CO)NC(=O)[C@H](CC(C)C)NC(=O)[C@H](CC(C)C)NC(=O)[C@H](CO)NC(=O)[C@H](CCCCN)NC(=O)[C@H](CC(C)C)NC(=O)[C@H](CCCCN)NC(=O)[C@H](CCCCN)NC(=O)[C@H](C)NC(=O)[C@H](C)NC(=O)[C@H](C)NC(=O)CNC(=O)[C@H](CO)NC(=O)[C@H](Cc1c[nH]c2ccccc12)NC(=O)[C@@H](N)CCCCN)C(=O)O` has an MIC of 100 µM (Candida glabrata; broth microdilution; ATCC 2001; 44 h, 37 °C).
`COc1ccccc1-c1n[nH]c2nc(N[C@H]3CC[C@H](NS(=O)(=O)CC(C)C)CC3)ncc12` gave a relative abundance of 0.83 (bead binding, competition bead pull-down, measured: LINJ.25.0940; Leishmania donovani extract; 10 µM; baseline: vehicle).
For `CCCCCCCCCC(=O)NCCCC[C@H](NC(=O)CCCCCCCCC)C(=O)N[C@@H](CCCCNC(=O)CCCCCCCCC)C(=O)NCC(=O)NCC(=O)NCC(=O)N[C@@H](CS)C(=O)N[C@@H](CCCNC(=N)N)C(=O)N[C@@H](CCCCN)C(=O)N1CCC[C@H]1C(=O)N[C@@H](CS)C(=O)N[C@@H](CCCNC(=N)N)C(=O)N[C@@H](CCCCN)C(=O)N1CCC[C@H]1C(N)=O`, the MIC was 16 µM (Candida albicans; broth microdilution; CGMCC 2.209, RPMI-1640; 48 h, 30 °C).
`CC(C)CCCCCCCCC/C=C/C(=O)N[C@@H](CC(N)=O)C(=O)N[C@H]1CNC(=O)[C@@H]2CCCN2C(=O)[C@H](C(C)C)NC(=O)[C@@H](CN)NC(=O)CNC(=O)[C@H](CC(=O)O)NC(=O)CNC(=O)[C@H](CC(=O)O)NC(=O)[C@H](CC(=O)O)NC(=O)[C@H]2CCCCN2C1=O` has an MIC of 4 µg/mL (Staphylococcus simulans; broth microdilution; 22, Mueller-Hinton broth, Mg2+ 10 mg/L; 16 h, 30 °C, together with: Ca2+ 5 mM).
The MIC of `CCCCCC(=O)NCCCC[C@H](NC(=O)CCCCC)C(=O)N[C@@H](CCCCNC(=O)CCCCC)C(=O)NCC(=O)NCC(=O)NCC(=O)N[C@@H](CS)C(=O)N[C@@H](CCCNC(=N)N)C(=O)N[C@@H](CCCCN)C(=O)N1CCC[C@H]1C(=O)N[C@@H](CS)C(=O)N[C@@H](CCCNC(=N)N)C(=O)N[C@@H](CCCCN)C(=O)N1CCC[C@H]1C(N)=O` is reported as 16 µM (Candida albicans; broth microdilution; SP 3902, RPMI-1640; 48 h, 30 °C).
With `COc1ccccc1-c1n[nH]c2nc(NC3CCN(C(=O)Cc4ccc(F)cc4F)CC3)ncc12` the relative abundance was 1.01 (bead binding, competition bead pull-down, measured: LINJ.34.0710; Leishmania donovani axenic amastigote extract; 10 µM; baseline: vehicle).
With `CC[C@H](C)[C@H](N)C(=O)N[C@@H](CCCNC(=N)N)C(=O)N[C@H](C(=O)N[C@@H](Cc1c[nH]c2ccccc12)C(=O)N[C@@H](CCCCN)C(=O)N[C@@H](CCCCN)C(=O)N[C@H](C(=O)N[C@H](C(=O)N[C@@H](CCCNC(=N)N)C(=O)N[C@@H](CCCCN)C(=O)N[C@@H](Cc1c[nH]c2ccccc12)C(=O)N[C@@H](CCCCN)C(=O)N[C@@H](C)C(=O)N[C@H](C(=O)N[C@@H](Cc1c[nH]c2ccccc12)C(=O)N[C@@H](Cc1c[nH]cn1)C(N)=O)[C@@H](C)CC)C(C)C)[C@@H](C)CC)C(C)C` the MIC was 12.5 µM (Listeria monocytogenes; broth dilution; KCTC 13064).
`CN(C)[C@H]1C[C@@]23CC[C@@]4(O2)C(=CC[C@]2(C)[C@@H](c5ccc6ccncc6c5)CC[C@H]24)C=C3[C@@H](O)[C@@H]1O` gave an inhibition of -27.8% (LYN (Homo sapiens, UniProt P07948); enzyme activity, inhibitor; 1 µM).
The inhibition of `CC(C)[C@H]1NC(=O)C[C@H]2/C=C/CCSSC[C@@H](NC1=O)C(=O)N[C@H](Cc1cccc3ccccc13)C(=O)NCC(=O)O2` is reported as 0.227% (RPS6KA4 (Homo sapiens, UniProt O75676); enzyme activity, inhibitor; 10 µM).
`CCCCCCCCCCCC(=O)NCCCC[C@H](NC(=O)CCCCCCCCCCC)C(=O)N[C@@H](CCCCNC(=O)CCCCCCCCCCC)C(=O)NCC(=O)NCC(=O)NCC(=O)N[C@@H](CS)C(=O)N[C@@H](CCCNC(=N)N)C(=O)N[C@@H](CCCCN)C(=O)N1CCC[C@H]1C(=O)N[C@@H](CS)C(=O)N[C@@H](CCCNC(=N)N)C(=O)N[C@@H](CCCCN)C(=O)N1CCC[C@H]1C(N)=O` gave an MIC of greater than 128 µM (Candida albicans; broth microdilution; 14936, RPMI-1640; 48 h, 30 °C).
The inhibition of `CS(C)(=O)=Nc1ccc(-c2ccc(-c3nc4cc(O[C@@H]5CO[C@H]6[C@@H]5OC[C@H]6O)[nH]c4cc3F)cc2)cc1` is reported as -8% (KIT (Homo sapiens, UniProt P10721); enzyme activity, inhibitor; 10 µM).
With `CCCCCCCC(=O)NCCCC[C@H](NC(=O)CCCCCCC)C(=O)N[C@@H](CCCCNC(=O)CCCCCCC)C(=O)NCC(=O)NCC(=O)NCC(=O)N[C@@H](CS)C(=O)N[C@@H](CCCNC(=N)N)C(=O)N[C@@H](CCCCN)C(=O)N1CCC[C@H]1C(=O)N[C@@H](CS)C(=O)N[C@@H](CCCNC(=N)N)C(=O)N[C@@H](CCCCN)C(=O)N1CCC[C@H]1C(=O)N[C@@H](CS)C(=O)N[C@@H](CCCNC(=N)N)C(=O)N[C@@H](CCCCN)C(=O)N1CCC[C@H]1C(N)=O` the MIC was 8 µM (Candida albicans; broth microdilution; SP 3903, RPMI-1640; 48 h, 30 °C).
With `CC(=O)N[C@@H](CC(C)C)C(=O)N[C@H]1CSSC[C@@H](C(=O)N2CCC[C@H]2C(N)=O)NC(=O)[C@H]([C@@H](C)O)NC(=O)[C@H](C(C)C)NC(=O)[C@H]([C@@H](C)O)NC(=O)[C@H](CCCCN)NC(=O)[C@H](CC(C)C)NC(=O)[C@H](Cc2ccccc2)NC(=O)[C@H](Cc2ccc(O)cc2)NC(=O)[C@H](CC(C)C)NC(=O)[C@H](CCCCN)NC(=O)[C@H](Cc2ccccc2)NC(=O)[C@H](CCCNC(=N)N)NC(=O)[C@H](CCC(N)=O)NC(=O)[C@H](CC(C)C)NC(=O)[C@H](CCCCN)NC(=O)[C@@H]2CCCN2C(=O)[C@H](CCCCN)NC(=O)[C@H](C(C)C)NC(=O)[C@H](CC(N)=O)NC(=O)[C@H](Cc2ccc(O)cc2)NC(=O)[C@H]([C@@H](C)O)NC1=O` the MIC was 5 to 10 µM (Aeromonas hydrophila; broth dilution; 24 h).
`CN[C@H](CC(C)C)C(=O)N[C@H]1C(=O)N[C@@H](CC(N)=O)C(=O)N[C@H]2C(=O)N[C@H]3C(=O)N[C@H](C(=O)N[C@H](C(=O)NCc4cn(CCCCC(=O)N[C@H](C(=O)N[C@@H](CCN)C(=O)N[C@H]5CCNC(=O)[C@H]([C@@H](C)O)NC(=O)[C@H](CCN)NC(=O)[C@H](CCN)NC(=O)[C@H](CC(C)C)NC(=O)[C@@H](CC(C)C)NC(=O)[C@H](CCN)NC5=O)[C@@H](C)O)nn4)c4cc(O)cc(O)c4-c4cc3ccc4O)[C@H](O)c3ccc(c(Cl)c3)Oc3cc2cc(c3O[C@@H]2O[C@H](CO)[C@@H](O)[C@H](O)[C@H]2O[C@H]2C[C@](C)(N)[C@H](O)[C@H](C)O2)Oc2ccc(cc2Cl)[C@H]1O` has an MIC of 0.012 µM (Staphylococcus simulans; broth microdilution; 22, cation-adjusted Mueller-Hinton broth).
`CC[C@H](C)[C@H](NC(=O)[C@H](Cc1c[nH]c2ccccc12)NC(=O)[C@H](CCCCN)NC(=O)[C@H](CC(C)C)NC(=O)[C@@H](NC(=O)[C@@H](NC(=O)CNC(=O)[C@H](CCCCN)NC(=O)[C@H](Cc1c[nH]cn1)NC(=O)[C@H](CCCCN)NC(=O)[C@H](Cc1c[nH]c2ccccc12)NC(=O)[C@H](C)NC(=O)[C@H](CC(C)C)NC(=O)[C@H](CO)NC(=O)[C@@H](NC(=O)[C@H](Cc1ccc(O)cc1)NC(=O)[C@H](CCCCN)NC(=O)[C@H](CCC(N)=O)NC(=O)CNC(=O)[C@H](CCCCN)NC(=O)[C@@H](NC(=O)[C@H](C)NC(=O)[C@H](CC(C)C)NC(=O)[C@H](Cc1ccccc1)NC(=O)[C@H](CCC(N)=O)NC(=O)[C@@H](NC(=O)[C@H](CC(C)C)NC(=O)[C@H](CCCCN)NC(=O)[C@H](CCSC)NC(=O)[C@H](Cc1ccccc1)NC(=O)[C@H](C)NC(=O)[C@H](C)NC(=O)[C@@H](N)CCSC)[C@@H](C)CC)[C@@H](C)O)C(C)C)[C@@H](C)O)[C@@H](C)CC)C(=O)N[C@@H](CC(N)=O)C(N)=O` has an MIC of 20 µg/mL (Salmonella enterica serovar Typhimurium; DA6192; 24 h, 37 °C).
`CC(C)(C)C(=O)OCOP(=O)(OCOC(=O)C(C)(C)C)C1CCCN(O)C1=O` (stereo not shown) gave a CC50 of greater than 100 µM (NCI-H226).
With `[O-][N+]1=C(c2ccc(Cl)cc2)C2=NCCCN2c2ccccc21` the MIC was 0.25 to 1 µg/mL (Fusobacterium nucleatum).
`CC[C@H](C)[C@H](NC(=O)[C@H](CCCNC(=N)N)NC(=O)[C@H](CO)NC(=O)[C@H](Cc1ccc(O)cc1)NC(=O)[C@@H](NC(=O)[C@@H](NC(=O)[C@H](C)NC(=O)CNC(=O)[C@H](CCCCN)NC(=O)[C@H](CCCCN)NC(=O)CCNC(=O)CCCCCNC(=O)[C@H](CCCNC(=N)N)NC(=O)CCCCCNC(=O)[C@H](CCCNC(=N)N)NC(=O)[C@H](CCCNC(=N)N)NC(=O)CCCCCNC(=O)[C@H](CCCNC(=N)N)NC(=O)[C@H](CCCNC(=N)N)NC(=O)CCCCCNC(=O)[C@H](CCCNC(=N)N)NC(=O)[C@H](CCCNC(=N)N)NC(=O)CCCCCNC(=O)[C@@H](N)CCCNC(=N)N)C(C)C)[C@@H](C)O)C(=O)N[C@@H](CO)C(=O)NCC(=O)N[C@@H](CCC(N)=O)C(=O)N[C@@H](Cc1ccc(O)cc1)C(=O)N[C@@H](CCCCN)C(=O)O` has an MIC of 6 µM (Escherichia coli; broth microdilution; ATCC 25922, Mueller-Hinton broth; 16 to 18 h, 37 °C).
`O=C1NC2(CC2)COc2ncc(F)cc2[C@H]2COCCN2c2ccn3ncc1c3n2` — result for “organ-to-brain weight ratio”: 109 ± 11.1% (Sprague-Dawley rat, female, kidneys; oral, 2.5 mg/kg/day, 4 weeks, end of treatment).
`CC(C)CCCCCCCCC/C=C/C(=O)N[C@@H](CC(=O)O)C(=O)N[C@H]1CNC(=O)[C@@H]2CCCN2C(=O)[C@H](C(C)C)NC(=O)[C@@H](CN)NC(=O)CNC(=O)[C@H](CC(=O)O)NC(=O)CNC(=O)[C@H](CC(=O)O)NC(=O)[C@H](CC(=O)O)NC(=O)[C@H]2CCCCN2C1=O` has an MIC of greater than 128 µg/mL (Staphylococcus simulans; broth microdilution; 22, Mueller-Hinton broth, Mg2+ 10 mg/L; 16 h, 30 °C, together with: Ca2+ 0 mM).

For quick reference, copied from above:
The inhibition of `CC(C)[C@H]1NC(=O)C[C@H]2/C=C/CCSSC[C@@H](NC1=O)C(=O)N[C@H](Cc1cccc3ccccc13)C(=O)NCC(=O)O2` is reported as 0.227% (RPS6KA4 (Homo sapiens, UniProt O75676); enzyme activity, inhibitor; 10 µM).
`CCCCCCCCCCCC(=O)NCCCC[C@H](NC(=O)CCCCCCCCCCC)C(=O)N[C@@H](CCCCNC(=O)CCCCCCCCCCC)C(=O)NCC(=O)NCC(=O)NCC(=O)N[C@@H](CS)C(=O)N[C@@H](CCCNC(=N)N)C(=O)N[C@@H](CCCCN)C(=O)N1CCC[C@H]1C(=O)N[C@@H](CS)C(=O)N[C@@H](CCCNC(=N)N)C(=O)N[C@@H](CCCCN)C(=O)N1CCC[C@H]1C(N)=O` gave an MIC of greater than 128 µM (Candida albicans; broth microdilution; 14936, RPMI-1640; 48 h, 30 °C).
The inhibition of `CS(C)(=O)=Nc1ccc(-c2ccc(-c3nc4cc(O[C@@H]5CO[C@H]6[C@@H]5OC[C@H]6O)[nH]c4cc3F)cc2)cc1` is reported as -8% (KIT (Homo sapiens, UniProt P10721); enzyme activity, inhibitor; 10 µM).
With `CCCCCCCC(=O)NCCCC[C@H](NC(=O)CCCCCCC)C(=O)N[C@@H](CCCCNC(=O)CCCCCCC)C(=O)NCC(=O)NCC(=O)NCC(=O)N[C@@H](CS)C(=O)N[C@@H](CCCNC(=N)N)C(=O)N[C@@H](CCCCN)C(=O)N1CCC[C@H]1C(=O)N[C@@H](CS)C(=O)N[C@@H](CCCNC(=N)N)C(=O)N[C@@H](CCCCN)C(=O)N1CCC[C@H]1C(=O)N[C@@H](CS)C(=O)N[C@@H](CCCNC(=N)N)C(=O)N[C@@H](CCCCN)C(=O)N1CCC[C@H]1C(N)=O` the MIC was 8 µM (Candida albicans; broth microdilution; SP 3903, RPMI-1640; 48 h, 30 °C).
